Measurements gathered from unrelated publications.
Compare with care: the assays were run in different laboratories. Values joined by “and” are separate records of one study, mostly repeats; a detail may differ.
CDK12 with cyclin K: Cyclin-dependent kinase 12, with cyclin K (CDK12, Homo sapiens, UniProt Q9NYV4)
Apeh: Acylamino-acid-releasing enzyme (Apeh, Mus musculus, UniProt Q8R146)
UniProt Q8R146, sequence (whole entry, looked up): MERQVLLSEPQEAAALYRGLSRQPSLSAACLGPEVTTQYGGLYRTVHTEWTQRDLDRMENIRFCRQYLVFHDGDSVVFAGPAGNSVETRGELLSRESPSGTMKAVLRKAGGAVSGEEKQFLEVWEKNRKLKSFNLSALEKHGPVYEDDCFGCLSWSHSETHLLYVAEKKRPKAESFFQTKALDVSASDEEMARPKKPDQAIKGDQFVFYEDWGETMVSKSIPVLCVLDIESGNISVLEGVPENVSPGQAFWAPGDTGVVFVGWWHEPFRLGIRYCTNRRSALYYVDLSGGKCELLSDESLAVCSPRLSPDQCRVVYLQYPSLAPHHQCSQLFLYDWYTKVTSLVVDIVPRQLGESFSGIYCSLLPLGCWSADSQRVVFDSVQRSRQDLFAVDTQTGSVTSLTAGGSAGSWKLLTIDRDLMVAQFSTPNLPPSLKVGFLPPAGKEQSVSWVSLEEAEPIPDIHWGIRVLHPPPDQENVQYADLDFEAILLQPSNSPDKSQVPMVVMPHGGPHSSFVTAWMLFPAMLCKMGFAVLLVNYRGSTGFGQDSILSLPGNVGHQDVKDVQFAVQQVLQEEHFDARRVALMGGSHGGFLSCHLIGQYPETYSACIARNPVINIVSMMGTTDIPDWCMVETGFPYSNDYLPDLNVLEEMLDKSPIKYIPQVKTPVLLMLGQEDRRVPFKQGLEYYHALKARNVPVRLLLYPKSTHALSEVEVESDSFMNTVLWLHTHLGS
TNKS: Poly [ADP-ribose] polymerase tankyrase-1 (TNKS, Homo sapiens, UniProt O95271)
UniProt O95271, sequence (whole entry, looked up): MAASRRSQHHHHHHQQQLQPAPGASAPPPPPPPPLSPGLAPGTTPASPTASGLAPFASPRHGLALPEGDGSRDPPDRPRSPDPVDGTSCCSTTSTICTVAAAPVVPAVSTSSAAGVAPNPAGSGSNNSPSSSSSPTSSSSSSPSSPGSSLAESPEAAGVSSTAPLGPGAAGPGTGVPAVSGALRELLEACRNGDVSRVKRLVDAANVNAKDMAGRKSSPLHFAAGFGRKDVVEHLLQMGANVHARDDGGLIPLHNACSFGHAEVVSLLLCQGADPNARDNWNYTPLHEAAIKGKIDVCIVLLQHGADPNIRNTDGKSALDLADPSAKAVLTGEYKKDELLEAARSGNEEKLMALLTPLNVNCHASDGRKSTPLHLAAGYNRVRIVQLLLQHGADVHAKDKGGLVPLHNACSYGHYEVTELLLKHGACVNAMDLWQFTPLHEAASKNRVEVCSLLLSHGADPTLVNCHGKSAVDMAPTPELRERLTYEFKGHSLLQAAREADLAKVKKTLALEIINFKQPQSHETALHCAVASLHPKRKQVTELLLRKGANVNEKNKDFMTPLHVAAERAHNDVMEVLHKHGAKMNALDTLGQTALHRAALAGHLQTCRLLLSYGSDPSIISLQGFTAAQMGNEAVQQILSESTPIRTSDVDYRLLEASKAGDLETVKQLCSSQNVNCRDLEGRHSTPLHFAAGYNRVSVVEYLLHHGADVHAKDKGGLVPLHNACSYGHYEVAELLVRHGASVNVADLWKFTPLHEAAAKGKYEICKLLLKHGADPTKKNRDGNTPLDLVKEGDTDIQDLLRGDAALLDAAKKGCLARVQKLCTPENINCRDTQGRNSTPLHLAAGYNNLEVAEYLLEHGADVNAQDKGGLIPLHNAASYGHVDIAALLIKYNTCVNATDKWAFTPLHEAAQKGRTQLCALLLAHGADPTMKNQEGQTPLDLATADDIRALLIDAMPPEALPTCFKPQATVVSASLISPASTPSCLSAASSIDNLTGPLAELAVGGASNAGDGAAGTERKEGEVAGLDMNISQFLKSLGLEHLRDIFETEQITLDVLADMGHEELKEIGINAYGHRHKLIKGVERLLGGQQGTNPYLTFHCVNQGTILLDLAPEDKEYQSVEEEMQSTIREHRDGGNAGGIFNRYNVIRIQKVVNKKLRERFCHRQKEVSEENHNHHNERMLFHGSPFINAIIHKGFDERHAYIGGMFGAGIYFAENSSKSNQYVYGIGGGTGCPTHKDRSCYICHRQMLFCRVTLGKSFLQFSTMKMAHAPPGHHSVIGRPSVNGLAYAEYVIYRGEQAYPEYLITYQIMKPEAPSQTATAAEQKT
Genome polyprotein NS2B-NS3 protease: Genome polyprotein, NS2B-NS3 protease (dengue virus type 2, UniProt P29990)
TACR2: Substance-K receptor (TACR2, Homo sapiens, UniProt P21452)
UniProt P21452, sequence (whole entry, looked up): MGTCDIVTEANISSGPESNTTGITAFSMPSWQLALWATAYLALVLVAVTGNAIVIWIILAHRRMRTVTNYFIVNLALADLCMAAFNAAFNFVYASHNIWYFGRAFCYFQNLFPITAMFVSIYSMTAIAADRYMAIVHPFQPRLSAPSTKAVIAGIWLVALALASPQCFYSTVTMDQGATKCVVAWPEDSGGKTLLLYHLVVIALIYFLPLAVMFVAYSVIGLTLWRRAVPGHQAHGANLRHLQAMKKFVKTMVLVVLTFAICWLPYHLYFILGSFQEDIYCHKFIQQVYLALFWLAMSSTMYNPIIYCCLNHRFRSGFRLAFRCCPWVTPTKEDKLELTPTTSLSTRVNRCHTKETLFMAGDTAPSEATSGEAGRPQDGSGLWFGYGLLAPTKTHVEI
MDM2: E3 ubiquitin-protein ligase Mdm2 (MDM2, Homo sapiens, UniProt Q00987)
UniProt Q00987, sequence (whole entry, looked up): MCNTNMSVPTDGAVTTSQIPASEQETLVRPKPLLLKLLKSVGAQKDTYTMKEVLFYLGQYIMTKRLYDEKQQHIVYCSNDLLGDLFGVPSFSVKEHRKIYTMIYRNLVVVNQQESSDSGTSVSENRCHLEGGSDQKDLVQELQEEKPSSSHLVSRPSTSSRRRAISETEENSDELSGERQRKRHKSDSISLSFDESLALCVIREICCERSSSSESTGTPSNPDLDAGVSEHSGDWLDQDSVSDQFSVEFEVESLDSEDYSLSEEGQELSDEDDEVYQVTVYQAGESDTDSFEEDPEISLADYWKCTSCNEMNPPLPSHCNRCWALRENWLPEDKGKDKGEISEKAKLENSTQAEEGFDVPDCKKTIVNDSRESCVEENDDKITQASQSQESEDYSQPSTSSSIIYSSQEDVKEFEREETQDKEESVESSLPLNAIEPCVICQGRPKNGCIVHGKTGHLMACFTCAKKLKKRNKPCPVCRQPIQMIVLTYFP
SIRT5: NAD-dependent protein deacylase sirtuin-5, mitochondrial (SIRT5, Homo sapiens, UniProt Q9NXA8)
UniProt Q9NXA8, sequence (whole entry, looked up): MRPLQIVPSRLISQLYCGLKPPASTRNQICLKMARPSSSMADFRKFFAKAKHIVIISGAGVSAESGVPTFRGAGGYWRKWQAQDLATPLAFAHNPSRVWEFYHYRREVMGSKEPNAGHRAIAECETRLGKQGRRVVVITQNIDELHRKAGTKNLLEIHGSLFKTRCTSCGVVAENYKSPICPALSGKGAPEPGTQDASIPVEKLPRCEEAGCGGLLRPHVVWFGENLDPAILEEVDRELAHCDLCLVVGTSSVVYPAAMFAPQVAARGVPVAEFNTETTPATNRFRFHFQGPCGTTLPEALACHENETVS
HDAC11: Histone deacetylase 11 (HDAC11, Homo sapiens, UniProt Q96DB2)
UniProt Q96DB2, sequence (whole entry, looked up): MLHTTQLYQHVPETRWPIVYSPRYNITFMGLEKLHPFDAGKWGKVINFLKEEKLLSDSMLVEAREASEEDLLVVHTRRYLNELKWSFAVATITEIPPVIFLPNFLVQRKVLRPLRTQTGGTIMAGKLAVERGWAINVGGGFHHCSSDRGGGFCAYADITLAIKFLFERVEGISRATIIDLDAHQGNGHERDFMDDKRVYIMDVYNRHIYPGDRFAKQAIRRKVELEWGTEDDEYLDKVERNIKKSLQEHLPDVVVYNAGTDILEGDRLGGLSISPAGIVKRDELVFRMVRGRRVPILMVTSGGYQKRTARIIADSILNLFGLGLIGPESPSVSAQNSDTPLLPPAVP
PRMT1: Protein arginine N-methyltransferase 1 (PRMT1, Homo sapiens, UniProt Q99873)
UniProt Q99873, sequence (whole entry, looked up): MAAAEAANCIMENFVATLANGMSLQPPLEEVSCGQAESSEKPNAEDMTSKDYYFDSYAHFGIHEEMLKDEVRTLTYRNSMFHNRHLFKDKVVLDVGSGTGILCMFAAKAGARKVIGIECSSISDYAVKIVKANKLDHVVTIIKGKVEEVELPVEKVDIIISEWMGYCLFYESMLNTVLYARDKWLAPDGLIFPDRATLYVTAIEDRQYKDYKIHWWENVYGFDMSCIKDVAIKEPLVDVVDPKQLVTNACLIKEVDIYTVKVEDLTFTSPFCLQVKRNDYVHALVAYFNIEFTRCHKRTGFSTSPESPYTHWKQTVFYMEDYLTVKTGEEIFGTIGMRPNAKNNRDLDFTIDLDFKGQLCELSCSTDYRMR
ADRA1D: Alpha-1D adrenergic receptor (ADRA1D, Homo sapiens, UniProt P25100)
UniProt P25100, sequence (whole entry, looked up): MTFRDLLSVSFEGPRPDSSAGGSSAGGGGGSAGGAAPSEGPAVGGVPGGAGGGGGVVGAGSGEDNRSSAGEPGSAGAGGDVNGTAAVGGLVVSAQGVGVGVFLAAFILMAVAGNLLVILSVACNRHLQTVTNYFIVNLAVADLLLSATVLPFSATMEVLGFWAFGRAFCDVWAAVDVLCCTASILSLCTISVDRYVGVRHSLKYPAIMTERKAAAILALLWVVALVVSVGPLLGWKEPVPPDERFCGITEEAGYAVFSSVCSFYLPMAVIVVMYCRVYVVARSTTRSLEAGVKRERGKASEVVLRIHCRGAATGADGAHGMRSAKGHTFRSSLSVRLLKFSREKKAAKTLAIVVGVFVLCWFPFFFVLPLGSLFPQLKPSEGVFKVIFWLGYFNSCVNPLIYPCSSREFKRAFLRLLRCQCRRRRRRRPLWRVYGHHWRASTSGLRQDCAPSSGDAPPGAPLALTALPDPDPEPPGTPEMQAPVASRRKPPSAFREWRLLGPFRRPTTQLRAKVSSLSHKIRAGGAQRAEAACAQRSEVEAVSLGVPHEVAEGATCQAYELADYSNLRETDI
UniProt Q13148, sequence (whole entry, looked up): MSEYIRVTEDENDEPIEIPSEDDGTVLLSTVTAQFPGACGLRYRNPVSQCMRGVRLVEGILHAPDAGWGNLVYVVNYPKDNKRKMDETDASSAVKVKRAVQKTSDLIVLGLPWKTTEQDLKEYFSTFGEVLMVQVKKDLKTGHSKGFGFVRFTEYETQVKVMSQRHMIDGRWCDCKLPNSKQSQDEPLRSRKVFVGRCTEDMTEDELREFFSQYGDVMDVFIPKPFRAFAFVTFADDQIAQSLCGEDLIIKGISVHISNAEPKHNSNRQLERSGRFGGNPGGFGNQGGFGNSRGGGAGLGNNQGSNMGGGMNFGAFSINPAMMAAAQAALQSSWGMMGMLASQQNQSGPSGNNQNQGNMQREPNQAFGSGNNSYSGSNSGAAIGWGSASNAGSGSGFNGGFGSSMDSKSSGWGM

| Compound | target | test | system | setting | scale | inhibition |
| --- | --- | --- | --- | --- | --- | --- |
| O=C(Nc1ccc(C(F)F)cc1)[C@H](CC1CCCCC1)Nc1nn2c(=O)ccnc2s1 | Receptor-type tyrosine-protein phosphatase beta (Homo sapiens, UniProt P23467) | enzyme activity, inhibitor |  | 10 µM |  | -2% |
| COc1ccc(C(=O)/C=C/c2ccccc2-c2c[nH]c3ccc(C#N)cc23)c(O)c1 | CDK12 with cyclin K | enzyme activity, inhibitor |  | 20 µM |  | 2% |
| CN(C(=O)n1ccnn1)c1ccccc1 | Apeh | serine hydrolase activity, inhibitor, competitive gel-based ABPP | mouse T-cell proteome | 1 µM, 30 min, 37 °C |  | < 50% |
| O=C(CCCc1ccc2c(c1)OCCO2)NCCNC(=O)Cn1c(=O)[nH]c(=O)c2ccccc21 | TNKS | enzyme activity, inhibitor |  | 50 nM |  | 10% |
| CCC(=O)N(C)c1ccc(Cl)c(Cl)c1 | VIPR1 (Homo sapiens, UniProt P32241) | ligand displacement, radioligand |  | 10 µM |  | < 10% |
| COc1ccc2nc(C)ccc2c1Nc1sn(C)c(=O)c1C#N | TNKS | enzyme activity, inhibitor |  | 10 µM |  | 5% |
| COc1ccc(C(=O)Nc2c(-c3cccs3)nc3ccccn23)cc1 | HRH4 (Homo sapiens, UniProt Q9H3N8) | ligand displacement, radioligand |  | 10 µM |  | < 50% |
| N=C(N)NCc1cccc(CNC(=O)c2cc(-c3ccccc3)n(-c3ccccc3)n2)c1 | Genome polyprotein NS2B-NS3 protease | enzyme activity, fluorogenic AMC substrate |  | 50 µM |  | 36% |
| C[Si]1(C[C@H](CN)CC(=O)O)CCCC1 | TACR2 | ligand displacement, radioligand |  | 70 µM |  | -3% |
| CC(=O)N[C@H](C(=O)N[C@@H](CO)C(=O)N[C@@H](Cc1ccccc1)C(=O)N[C@H]1CCCCNC(=N)NCCCCNC(=N)NCCCC[C@@H](C(=O)N[C@@H](CC(C)C)C(=O)N[C@@H](CC(C)C)C(=O)N[C@@H](CO)C(=O)N2CCC[C@H]2C(N)=O)NC(=O)[C@H](Cc2c[nH]c3ccccc23)NC(=O)[C@H](Cc2ccc(O)cc2)NC(=O)[C@H](CCC(=O)O)NC1=O)[C@@H](C)O | MDM2 | protein-protein interaction, inhibitor, TR-FRET |  | 0.1 µM |  | ≥ 90% |
| CCCCCCCCCCCCNC(=S)NCCCC[C@H](NS(C)(=O)=O)C(=O)N[C@H](C)C(=O)N[C@@H](CCCNC(=N)N)C(N)=O | SIRT5 | enzyme activity, inhibitor |  | 100 µM |  | < 5% |
| O=C(/C=C/c1cccc(OS(=O)(=O)Oc2ccccc2-c2ccccc2)c1)NO | HDAC11 |  |  | 10 µM |  | 15% |
| CN(C)C/C=C/C(=O)Nc1ccc2nc(NCCCCCN(C)C)nc(NCCCCCCN(C)C)c2c1 | PRMT1 | enzyme activity, inhibitor, radiometric |  | 50 µM |  | 97% |
| NC(=O)c1cccc(NC(=O)c2cc(-c3cccs3)n(-c3ccc(Cl)cc3)n2)c1 | Genome polyprotein NS2B-NS3 protease | enzyme activity, fluorogenic AMC substrate |  | 50 µM |  | 59% |
| O=C(NC1CCC1)[C@H](Cc1c[nH]c2ccccc12)NC(=O)[C@H](CCCCNC(=S)NCCP(=O)(O)O)NS(=O)(=O)c1cccc(F)c1 | SIRT5 | enzyme activity, inhibitor |  | 100 µM |  | 18% |
| CO[C@@H](C)c1c(NC(=O)Nc2cnc(-n3nccn3)c(C(F)(F)F)c2)cnc2sc(C)nc12 | TACR2 | ligand displacement, radioligand |  | 10 µM |  | 7% |
| C/C=C/C(=O)Nc1ccc2nc(NCCCCCN(C)C)nc(NCCCCCCN(C)C)c2c1 | PRMT1 | enzyme activity, inhibitor, radiometric |  | 10 µM |  | 65% |
| C[Si](C)(C)C[C@@H](CN)CC(=O)O | CNR2 (Homo sapiens, UniProt P34972) | ligand displacement, radioligand |  | 75 µM |  | 11% |
| N=C(N)NCCCC(NC(=O)C(CC(=O)NO)Cc1ccc2ccccc2c1)C(=O)NC(Cc1c[nH]c2ccccc12)C(=O)NC(CCC(=O)O)C(N)=O (stereo not shown) | Matrix metalloproteinase-24 (Homo sapiens, UniProt Q9Y5R2) |  |  | 1 µM |  | 46% |
| Cc1cc(C(=O)N[C@H](C(=O)Nc2cccc(C(N)=O)c2)c2ccc(OCc3ccccc3)cc2)n(Cc2ccccc2)n1 | Genome polyprotein NS2B-NS3 protease | reporter gene | HeLa | 12.5 µM |  | 83% |
| O=C(NC1CCC1)[C@H](Cc1c[nH]c2ccccc12)NC(=O)[C@H](CCCCNC(=S)NCS(=O)(=O)O)NS(=O)(=O)c1cccc(F)c1 | SIRT5 | enzyme activity, inhibitor |  | 100 µM |  | 67% |
| O=C1c2sc(-c3ccc(N4CCC(CO)CC4)nc3F)nc2CCN1c1cccnc1 | L-type Ca2+ channel, benzothiazepine (diltiazem) site | radioligand binding, BioPrint binding panel |  | 1 µM, together with: antagonist radioligand |  | -1% |

| Compound | target | test | system | setting | scale | inhibition |
| --- | --- | --- | --- | --- | --- | --- |
| O=C(Nc1cccc(CN2CCc3nc[nH]c3C2)c1)c1cc(-c2ccccc2)n(-c2ccccc2)n1 | Genome polyprotein NS2B-NS3 protease | reporter gene | HeLa | 12.5 µM |  | 67% |
| CCCCCCCCCCCCCCCC(=O)N[C@@H](CCCCN)C(=O)N[C@@H](CCCCN)C(=O)N[C@@H](CO)C(=O)N[C@@H](CCCNC(=N)N)C(=O)N[C@@H](C)C(=O)N[C@@H](CC(C)C)C(=O)N[C@@H](Cc1ccccc1)C(N)=O | F2RL3 (Homo sapiens, UniProt Q96RI0) | platelet aggregation, ex vivo LTA | human | 0.5 mg/kg, 24 h or discharge, together with: AYPGKF 160 µM | baseline: baseline | 37% |
| N#Cc1c(Nc2ccccc2C(F)(F)F)s[nH]c1=O | SARM1 (Homo sapiens, UniProt Q6SZW1) | enzyme activity, inhibitor |  | 10 µM |  | 100% |
| N=C(N)NCc1cccc(NC(=O)c2cc(-c3ccccc3)n(-c3ccccc3)n2)c1 | Genome polyprotein NS2B-NS3 protease | enzyme activity, fluorogenic AMC substrate |  | 50 µM |  | 60% |
| CCn1cc(-c2cccc(C(F)(F)F)c2)c2sc(C(=N)NC3CCS(=O)(=O)CC3)cc2c1=O | CECR2 (Homo sapiens, UniProt Q9BXF3) |  |  | 1 µM |  | 99.3% |
| O=C(NO)c1cccc(OS(=O)(=O)Oc2ccc(N3CCOCC3)cc2)c1 | HDAC11 |  |  | 10 µM |  | 47% |
| CN1CC[C@@H](COc2cnc(C#N)cc2-c2ccn3nc(NC(=O)C4CC4)cc3c2)C1 | CDK12 with cyclin K | enzyme activity, inhibitor |  | 1 µM |  | 9% |
| O=C(n1ccnn1)n1c2ccccc2c2ccccc21 | Apeh | serine hydrolase activity, inhibitor, competitive gel-based ABPP | mouse T-cell proteome | 1 µM, 30 min, 37 °C |  | < 50% |
| CC(C)Cn1c(SCC(=O)N2CCc3ccccc3C2)nc2cc(Cl)ccc2c1=O | ADRA1D | ligand displacement, radioligand |  | 10 µM |  | -19% |
| C=CC(=O)N1[C@@H](c2ccc3c(c2)OCO3)c2[nH]c3ccccc3c2C[C@H]1C(=O)NC1CC1 | Heme oxygenase 2 (HMOX2, Homo sapiens, UniProt P30519) | cysteine IA-DTB labelling, covalent inhibitor, MS-ABPP | 22Rv1 | 20 µM, in situ treatment | baseline: DMSO | 50% |
| CC(C)C[C@H]1CNC(=O)N2C[C@H](C[C@H]2C(N)=O)NC(=O)CCNC(=N)NCCCCNC(=N)NCCCC[C@H](NC(=O)[C@H](Cc2ccccc2)NC(=O)[C@H](CO)NC(=O)[C@@H](N)[C@@H](C)O)C(=O)N[C@@H](CCC(=O)O)C(=O)N[C@@H](Cc2ccc(O)cc2)C(=O)N[C@@H](Cc2c[nH]c3ccccc23)C(=O)N[C@@H](C)C(=O)N[C@@H](CC(C)C)CNC(=O)N1 | MDM2 | protein-protein interaction, inhibitor, TR-FRET |  | 0.1 µM |  | 94% |
| Cc1[nH]nc2c1N=C(c1ccccc1Cl)c1cnc(N3CCOCC3)cc1N2 | ADRA1D | cell-free assay |  | 10 µM |  | 5% |
| O=C1c2sc(-c3ccc(N4CCC(F)C4)nc3F)nc2CCN1c1cccnc1 (stereo not shown) | TAR DNA-binding protein 43, aggregated (TARDBP, Homo sapiens, UniProt Q13148) | radioligand binding | homogenate, FTLD-TDP, type A | 1000 nM, together with: [3H]ACI-19626 |  | 82.9% and 87.1% |
| C#CCOC(=O)[C@]1(C)C=C(C(=O)OC(C)(C)C)C(=O)CC1 | Cyclin-dependent kinase 7, with cyclin H, MAT1 (CDK7, Homo sapiens, UniProt P50613) | kinase activity, Kinase-Glo |  | 10 µM |  | no inhibition |
| N#Cc1ccc(CNC(=O)c2cc(-c3ccccc3)n(-c3ccccc3)n2)cc1 | Genome polyprotein NS2B-NS3 protease | enzyme activity, fluorogenic AMC substrate |  | 50 µM |  | 28% |
| CS(=O)(=O)Nc1cccc(-c2csc3cnc(Nc4ccc(N5CCN(CCCCCOc6cccc7c6C(=O)N(C6CCC(=O)NC6=O)C7=O)CC5)cc4)nc23)c1 (stereo not shown) | RIPK3 (Homo sapiens, UniProt Q9Y572) | probe labelling, inhibitor, KiNativ chemoproteomics | MOLT-4 | 1 µM |  | -22% |
| CN(Cc1ccc(/C=C/C(=O)NO)cc1)CC12CC3CC(CC(C3)C1)C2 | human GAL2 receptor | radioligand binding |  | 0.05 µM |  | 1% |
| NC(=O)c1cccc(NC(=O)c2cc(-c3ccc4c(c3)OCCO4)n(-c3ccccc3)n2)c1 | Genome polyprotein NS2B-NS3 protease | reporter gene | HeLa | 12.5 µM |  | 50% |
| O=C(/C=C/c1cccc(OS(=O)(=O)Oc2ccc(Br)cc2)c1)NO | HDAC11 |  |  | 10 µM |  | 38% |
| Cc1onc(-c2ccc(F)cc2)c1C(=O)Nc1cccc(C(N)=O)c1 | Genome polyprotein NS2B-NS3 protease | enzyme activity, fluorogenic AMC substrate |  | 50 µM |  | 18% |
| Cc1cc(C(=O)NCCNC(=O)c2cccc(COc3ccccc3C(N)=O)c2)n[nH]1 | TNKS | enzyme activity, inhibitor |  | 5 nM |  | 85% |

Some of these lines once more:
| Compound | target | test | system | setting | scale | inhibition |
| --- | --- | --- | --- | --- | --- | --- |
| CC(=O)N[C@H](C(=O)N[C@@H](CO)C(=O)N[C@@H](Cc1ccccc1)C(=O)N[C@H]1CCCCNC(=N)NCCCCNC(=N)NCCCC[C@@H](C(=O)N[C@@H](CC(C)C)C(=O)N[C@@H](CC(C)C)C(=O)N[C@@H](CO)C(=O)N2CCC[C@H]2C(N)=O)NC(=O)[C@H](Cc2c[nH]c3ccccc23)NC(=O)[C@H](Cc2ccc(O)cc2)NC(=O)[C@H](CCC(=O)O)NC1=O)[C@@H](C)O | MDM2 | protein-protein interaction, inhibitor, TR-FRET |  | 0.1 µM |  | ≥ 90% |
| CCn1cc(-c2cccc(C(F)(F)F)c2)c2sc(C(=N)NC3CCS(=O)(=O)CC3)cc2c1=O | CECR2 (Homo sapiens, UniProt Q9BXF3) |  |  | 1 µM |  | 99.3% |
| N=C(N)NCc1cccc(NC(=O)c2cc(-c3ccccc3)n(-c3ccccc3)n2)c1 | Genome polyprotein NS2B-NS3 protease | enzyme activity, fluorogenic AMC substrate |  | 50 µM |  | 60% |
| CN(Cc1ccc(/C=C/C(=O)NO)cc1)CC12CC3CC(CC(C3)C1)C2 | human GAL2 receptor | radioligand binding |  | 0.05 µM |  | 1% |
| Cc1[nH]nc2c1N=C(c1ccccc1Cl)c1cnc(N3CCOCC3)cc1N2 | ADRA1D | cell-free assay |  | 10 µM |  | 5% |
| COc1ccc(C(=O)/C=C/c2ccccc2-c2c[nH]c3ccc(C#N)cc23)c(O)c1 | CDK12 with cyclin K | enzyme activity, inhibitor |  | 20 µM |  | 2% |
| O=C(/C=C/c1cccc(OS(=O)(=O)Oc2ccccc2-c2ccccc2)c1)NO | HDAC11 |  |  | 10 µM |  | 15% |
